Results from different studies.
A part holds a random share of what one study measured.

Block 1 — technique: protein binding microarray; form: double-stranded DNA, one strand shown; medium: in vitro; tested at: not given; relative to: not given; reading: higher = stronger binding; endpoint: E-score
Target: Histone acetyltransferase KAT6A, winged helix 2, GST fusion (KAT6A, Homo sapiens, UniProt Q92794, residues 85-181)
Setting: 8-mer, flanks averaged, mean of 2 arrays, mostly near background
Residues (chain): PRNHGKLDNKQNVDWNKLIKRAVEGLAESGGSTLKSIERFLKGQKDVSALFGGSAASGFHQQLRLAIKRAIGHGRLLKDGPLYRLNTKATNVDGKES
ATTCATCG: 0.0148
TATTACCA: 0.0381
CGAAACAG: 0.115
ACTTGCAC: -0.129
AGACTACC: -0.197
GCCGCGAA: 0.0255

Block 2 — technique: universal PBM; form: double-stranded DNA, one strand shown; medium: in vitro; tested at: not given; reading: higher = stronger binding; endpoint: E-score
Target: Sal-like protein 4, full length isoform B (SALL4, Homo sapiens, UniProt Q9UJQ4-2, residues 1-616)
Setting: 8-mer, flanks averaged, mean of replicates
AATCGGGG: -0.189
CTGTTCGA: -0.0499
AAGGACAA: 0.0523
AATAACTA: 0.336
GACGTATA: 0.193

Block 3 — technique: RNA Bind-n-Seq; form: RNA; medium: in vitro; tested at: 365 nM; relative to: no-protein control; reading: higher = stronger binding; endpoint: RBNS enrichment (R)
Target: RNA binding protein fox-1 homolog 2, RRM domain, GST-SBP tag (RBFOX2, Homo sapiens, UniProt O43251-10, residues 100-194)
Setting: natural RNA segment, single round, ends assumed
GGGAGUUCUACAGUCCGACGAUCAAAAAGUAUUUUGUUUUGAUUUUUUAACUUGCUGCAUUGUUUUGAUACUUUCUAUUUUUUUGGUCAAAUCAUGUUUAGAAACUUUGGAUGAGUUAAGAAGUCUUAAGUAUUGGAAUUCUCGGGUGCCAA: 0.883
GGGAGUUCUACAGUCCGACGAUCGGGUCUCUUAGACCUUACCUCUCAACUCCCUCAAGAGUACCAGUCUCUGAAGUUAUAAUGCUUUGGUCUCUACAUUAGGGGCAAGAUCCAGUCUGAGAGAAGUCUCCUUUUGGAAUUCUCGGGUGCCAA: 0.361
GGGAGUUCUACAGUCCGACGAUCUGAGUGAAUUGUUAGAUGUGCACUGAACUCGGGAUGUUGGGGAUUGGAGAGAGAGAAUUGCCAAAGUAACAGCAAAAAUAUCUCUUACUUUGCUUUGUUUAUAAAUAAAUUGGAAUUCUCGGGUGCCAA: 1.62
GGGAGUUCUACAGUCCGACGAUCCUUAAUGAACAGUGUCUAUACAUUUGCAUACACACACCCCCACCCCAGAGUGUUCUCAGUAUGUCAGAGAAAGUGCCACAGCAUUAGGACGGGAGCUUGGAGAACGUUUUUGGAAUUCUCGGGUGCCAA: 0.77
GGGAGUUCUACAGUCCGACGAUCUUCUCCUUGUUAUUCAUUUUGGGCUUUUUGAUGAAACCACCAGGGCAUCACAUAUACUAAGCAUGUGCUCUACCAUCAUGCUAUGCUUCCAGCUCAGGGGGGCACUUUUAUGGAAUUCUCGGGUGCCAA: 1.29
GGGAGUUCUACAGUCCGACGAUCAAAUUACUUAUAAAUUUUUUAUAGUUGUAUUUUUGACCUGCCUUUUAUAUGUAUGAAUAUUUCAUAGUUUUGCAUAUCAGAUGUAGGCAUACAGACAAAUACAUAAACCAUGGAAUUCUCGGGUGCCAA: 0.855
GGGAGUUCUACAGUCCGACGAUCGCCUUCACAGAAUGAUGGCACCUUCCUAAACCCUCAUGGGUGGUGUCUGAGAGGCGUGAAGGGCCUGGAGCCACUCUGCUAGAAGAGACCAAUAAAGGGCAGGUGUGGAAUGGAAUUCUCGGGUGCCAA: 1.76

Single results of other studies
PhoQ, residues 284 288 289 292 302 303 SACGEM
fold induction (PhoP, residues 12 14 15 18 19 FWNTL (Escherichia coli, UniProt P23836); Sort-seq, measured: YFP reporter; E. coli; PhoQ-PhoP variant library, together with: 10 µM Mg2+; relative to: high Mg2+ state, higher = stronger signaling): 0.703

Excerpt of the above (block 1):
TATTACCA: 0.0381
CGAAACAG: 0.115
ACTTGCAC: -0.129
